Measured values pooled from the literature.
Protocols differ between the studies behind these lines. ± gives the spread as reported.
Target: Broad substrate specificity ATP-binding cassette transporter ABCG2 (ABCG2, Homo sapiens, UniProt Q9UNQ0)
One construct used (Q9UNQ0 1-655): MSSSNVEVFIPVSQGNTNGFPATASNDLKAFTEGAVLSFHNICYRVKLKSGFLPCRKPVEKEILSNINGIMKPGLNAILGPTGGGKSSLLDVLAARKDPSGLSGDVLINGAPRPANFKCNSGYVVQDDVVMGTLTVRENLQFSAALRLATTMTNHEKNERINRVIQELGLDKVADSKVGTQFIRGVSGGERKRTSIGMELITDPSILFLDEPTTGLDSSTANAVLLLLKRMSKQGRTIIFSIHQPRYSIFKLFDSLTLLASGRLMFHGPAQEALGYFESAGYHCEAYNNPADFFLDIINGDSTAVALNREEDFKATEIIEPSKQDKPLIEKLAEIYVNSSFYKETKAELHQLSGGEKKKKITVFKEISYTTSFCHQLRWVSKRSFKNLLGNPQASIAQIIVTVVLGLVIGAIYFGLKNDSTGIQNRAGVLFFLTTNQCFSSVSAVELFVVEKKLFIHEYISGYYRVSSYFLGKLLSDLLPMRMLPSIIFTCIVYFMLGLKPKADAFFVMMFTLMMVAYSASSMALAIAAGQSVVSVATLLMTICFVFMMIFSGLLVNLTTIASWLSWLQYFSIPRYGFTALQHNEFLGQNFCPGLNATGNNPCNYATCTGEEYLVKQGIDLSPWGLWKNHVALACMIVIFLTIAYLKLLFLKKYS

SMILES	assay	system	setting	how to read	endpoint	result
O=C(/C=C/c1ccccc1Cl)c1ccc2c(c1)OCO2	mitoxantrone efflux, flow cytometry	HEK293 transfected with ABCG2	5 µM, 30 min, together with: mitoxantrone	relative to: 5 µM GF120918 as 100%	inhibition	59.1 ± 11.2%
COc1ccc(C2=NOC(CN3CCC(N4CCCC4=O)c4cc(Cl)ccc43)C2)cc1OC (stereo not shown)	transport inhibition, mitoxantrone efflux flow cytometry	HEK293 overexpressing ABCG2	10 µM, 30 min, together with: mitoxantrone 10 µM	relative to: ABCG2 over ABCB1 and ABCB4	selectivity ratio	≥ 2 fold
COc1cc(/C=C/C(=O)c2ccc3c(c2)OCO3)ccc1OCc1ccccc1	mitoxantrone efflux, flow cytometry	HEK293 transfected with ABCG2	5 µM, 30 min, together with: mitoxantrone	relative to: 5 µM GF120918 as 100%	inhibition	85.7 ± 6.7%
O=C(O)C1OC(Oc2ccc3c(=O)cc(-c4ccccc4)oc3c2)C(O)C(O)C1O (stereo not shown)	substrate, glucuronide efflux	HeLa-UGT1A9 cells	–	–	log CLint	1.53
Cc1ccc([N+](=O)[O-])cc1Nc1nccc(-c2cccnc2)n1	–	MCF7-FLV1000, overexpressing	together with: mitoxantrone 5 µM	–	IC20	230 nM
O=C(/C=C/c1ccc(Br)cc1)c1ccc2c(c1)OCO2	mitoxantrone efflux, flow cytometry	HEK293 transfected with ABCG2	5 µM, 30 min, together with: mitoxantrone	relative to: 5 µM GF120918 as 100%	inhibition	13.7 ± 7.5%
Cc1cc(NC(=O)c2ccc(C)c(Nc3nccc(-c4cccnc4)n3)c2)cc(-n2cnc(C)c2)c1	–	MCF7-FLV1000, overexpressing	together with: mitoxantrone 5 µM	–	IC20	420 nM
O=C(O)C1OC(Oc2ccc3oc(-c4ccccc4)cc(=O)c3c2)C(O)C(O)C1O (stereo not shown)	efflux of glucuronide, substrate	HeLa-UGT1A9	–	–	Km	26.8 µM
CC(=O)Nc1ccc(C)c(Nc2nccc(-c3cccnc3)n2)c1	–	MCF7-FLV1000, overexpressing	together with: mitoxantrone 5 µM	–	IC20	8340 nM
O=C(O)C1OC(Oc2ccc(-c3cc(=O)c4ccccc4o3)cc2)C(O)C(O)C1O (stereo not shown)	substrate, glucuronide efflux	HeLa-UGT1A9 cells	–	–	Vmax	111 ± 6.9 pmol/mg/min
